Measured values from different studies.
Each line is one published result; not all experiments were run side by side.

OC[C@H]1O[C@H](O[C@H]2[C@H](O)[C@@H](O)[C@H](O)O[C@@H]2CO)[C@H](O)[C@@H](O)[C@@H]1O — z-scored log2 fold change (binding, equilibrium dialysis LC-MS; 5 µM, thermostabilized A2AR-BRIL construct; relative to: no-protein control, direction not given): 0.274
NC(=O)c1cnc2[nH]ccc2c1N[C@@H]1[C@@H]2CC3C[C@H]1C[C@@](O)(C3)C2 — change from baseline (flow cytometry, refers to: memory T cells (CD3+ CD45RA-); Japanese healthy subjects, peripheral blood; oral, 10 mg twice daily, day 7): 2.72%
OC(CCN1CCCCC1)(c1ccccc1)C1CC2C=CC1C2 (stereo not drawn) — change in EEG Beta1-power Fz-Cz (resting-state EEG; healthy elderly humans; oral, 2 mg, eyes closed, LS mean; relative to: baseline): -10%
N#Cc1ccn2c(-c3ccncc3)c(-c3ccc(F)cc3)nc2c1 — log2 fold change (kinase binding, competitor, MIB/MS competition, refers to: YCK2; Candida albicans cell lysate; 1 µM; relative to: DMSO): -2.43
O=C(O)CC(C(=O)O)C(O)C(=O)O (racemic) — z-scored log2 fold change (binding, equilibrium dialysis LC-MS; 5 µM, thermostabilized A2AR-BRIL construct; relative to: no-protein control, direction not given): -0.049
C[C@H](Oc1ccc(Br)cc1-c1ccon1)C(=O)O — interstimulus interval at ESN (muscle velocity recovery cycles; human, tibialis anterior muscle; 400 mg once daily, multiple doses, multiple ascending dose; relative to: placebo): -0.88 ms
NC(CCS)C(=O)O (racemic) — z-scored log2 fold change (binding, equilibrium dialysis LC-MS; 5 µM, thermostabilized A2AR-BRIL construct; relative to: no-protein control, direction not given): 0.377
N#Cc1ccc2c(c1)[C@H]1CCCN(C(=O)c3ccc4[nH]cnc4c3)[C@H]1C2 — diastolic blood pressure change (human, Phase II trial; 80 mg once daily, day 28, adjusted mean; relative to: baseline): -1.9 mmHg
CC(C)NCC(O)c1ccc(O)c(O)c1 (stereo not drawn) — sarcomere length (ventricular cardiomyocytes, C57BL/6 mouse; dose not given, 0.84 s): 1.51 µm

Some of these lines once more:
OC[C@H]1O[C@H](O[C@H]2[C@H](O)[C@@H](O)[C@H](O)O[C@@H]2CO)[C@H](O)[C@@H](O)[C@@H]1O — z-scored log2 fold change (binding, equilibrium dialysis LC-MS; 5 µM, thermostabilized A2AR-BRIL construct; relative to: no-protein control, direction not given): 0.274
